Measured values of several laboratories.
± gives the spread as reported.
Target: Sodium-dependent dopamine transporter (SLC6A3, Homo sapiens, UniProt Q01959)
Chain of UniProt Q01959 (whole entry, looked up): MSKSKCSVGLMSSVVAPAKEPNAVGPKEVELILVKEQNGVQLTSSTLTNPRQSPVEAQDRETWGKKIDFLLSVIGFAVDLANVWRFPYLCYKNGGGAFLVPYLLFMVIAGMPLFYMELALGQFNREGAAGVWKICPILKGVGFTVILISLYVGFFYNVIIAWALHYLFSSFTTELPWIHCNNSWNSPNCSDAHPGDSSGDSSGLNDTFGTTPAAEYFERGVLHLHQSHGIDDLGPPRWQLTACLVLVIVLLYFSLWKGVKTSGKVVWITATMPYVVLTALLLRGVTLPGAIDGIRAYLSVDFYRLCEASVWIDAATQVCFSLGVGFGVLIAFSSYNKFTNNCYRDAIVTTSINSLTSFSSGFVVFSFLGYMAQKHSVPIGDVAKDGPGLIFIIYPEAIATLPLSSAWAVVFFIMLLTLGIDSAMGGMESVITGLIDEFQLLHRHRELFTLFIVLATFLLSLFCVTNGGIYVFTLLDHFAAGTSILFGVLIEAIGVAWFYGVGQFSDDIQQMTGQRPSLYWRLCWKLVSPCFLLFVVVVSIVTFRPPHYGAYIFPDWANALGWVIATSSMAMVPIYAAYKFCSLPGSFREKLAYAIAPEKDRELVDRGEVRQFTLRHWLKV

| Structure (SMILES) | assay | system | setting | endpoint | value |
| --- | --- | --- | --- | --- | --- |
| CCNC(C)C(=O)c1ccc(Cl)cc1 (stereo not drawn) | [3H]dopamine release, releaser | HEK293 expressing target |  | EC50 | > 100 µM |
| CCc1ccc2[nH]c3nc(SCCNS(=O)(=O)c4ccc(NC(C)=O)cc4)nnc3c2c1 | transporter uptake, inhibitor, radiometric |  |  | IC50 | 3.7 µM |
| COc1cc(CC(C)N)c(OC)cc1C (single isomer, unassigned; (-)) | transporter uptake, inhibitor, radiometric |  |  | IC50 | > 100 µM |
| COC(=O)[C@H]1C(c2ccc(I)cc2)C[C@@H]2CC[C@H]1N2C (stereo partly drawn) | binding, radioligand saturation binding | HEK293 hDAT membranes | 16 h, room temperature | Kd | 0.0094 ± 0.0028 µM |
| CNC(C)C(=O)c1ccc(O)c(OC)c1 (stereo not drawn) | transporter uptake, inhibitor, radiometric |  |  | IC50 | 0.34 µM |
| CCCC(NCC)C(=O)c1ccc2c(c1)OCO2 (stereo not drawn) | [3H]dopamine release, releaser | HEK293 expressing target |  | EC50 | > 10 µM |
| COc1cc(CC(C)N)ccc1O (stereo not drawn) | transporter uptake, inhibitor, radiometric |  |  | IC50 | 0.13 µM |
| CC(C(=O)c1ccc2c(c1)OCO2)N(C)C (stereo not drawn) | [3H]dopamine release, releaser | HEK293 expressing target |  | EC50 | > 10 µM |
| CCN(CC)C(=O)[C@@H]1C=C2c3cccc4[nH]cc(c34)C[C@H]2N(C)C1 | transporter uptake, inhibitor, radiometric |  |  | IC50 | > 10 µM |

For quick reference, copied from above:
| Structure (SMILES) | assay | system | setting | endpoint | value |
| --- | --- | --- | --- | --- | --- |
| CCCC(NCC)C(=O)c1ccc2c(c1)OCO2 (stereo not drawn) | [3H]dopamine release, releaser | HEK293 expressing target |  | EC50 | > 10 µM |
